# Results pooled from the literature.
# ± marks the error that the study gave.
Structure (SMILES),tested on,test,test system,conditions,scale,measurement,result
CC(C)CC(C)N1CCn2cc(C(=O)NCc3ccc(F)cc3F)c(=O)c(O)c2C1=O (stereo not drawn),human immunodeficiency virus 1,single-round vector infection,integrase S230N,,,EC50,12.8 ± 3.7 nM
CSCC[C@@H]1NC(=O)CNC(=O)[C@H](CCC(=O)O)NC(=O)[C@@H]2CSSC[C@H](NC(=O)[C@@H](N)Cc3ccc(O)cc3)C(=O)N[C@@H](CCC(N)=O)C(=O)N[C@@H](CCCCN)C(=O)N[C@@H](Cc3c[nH]c4ccccc34)C(=O)N[C@@H](CCSC)C(=O)N[C@@H](Cc3c[nH]c4ccccc34)C(=O)N[C@@H]([C@@H](C)O)C(=O)N[C@H]3CSSC[C@H](NC(=O)[C@H](C(C)C)NC1=O)C(=O)N[C@@H](CCCNC(=N)N)C(=O)N[C@@H](CC(C)C)C(=O)N[C@@H](Cc1c[nH]c4ccccc14)C(=O)N[C@H](C(=O)N[C@@H](CCCCN)C(=O)N[C@@H](CCCCN)C(=O)N[C@@H](CCCCN)C(=O)N[C@@H](CC(C)C)C(=O)N[C@@H](Cc1c[nH]c4ccccc14)C(=O)O)CSSC[C@H](NC(=O)[C@H](CCCCN)NC(=O)[C@H](CCCNC(=N)N)NC(=O)[C@H](CCC(=O)O)NC(=O)[C@H](CO)NC(=O)[C@H](CC(=O)O)NC3=O)C(=O)N2,ND7/23,peak TTX-sensitive sodium current,,"0.003 µM, 2 peak",,inhibition,25.5 ± 12.1%
COCCn1ccn2cc(C(=O)NCc3ccc(F)cc3F)c(=O)c(O)c2c1=O,human immunodeficiency virus 1,single-round vector infection,integrase R263K,,,EC50,3.9 ± 0.8 nM
Cc1cc(/C=C/C#N)cc(C)c1-n1cnc2cnc(Nc3ccc(C#N)cc3)nc21,HIV-1,"viral replication, single-round infection",RT mutant G190A,,,EC50,0.2 ± 0.1 nM
CC[C@H](C)[C@H](NC(=O)[C@H](CCCCN)NC(=O)[C@H](CC(=O)O)NC(=O)[C@H](CC(C)C)NC(=O)[C@H](Cc1ccc(O)cc1)NC(=O)[C@@H](NC(=O)[C@H](CO)NC(=O)[C@H](Cc1ccc(O)cc1)NC(=O)[C@H](CC(=O)O)NC(=O)[C@H](CO)NC(=O)[C@@H](NC(=O)[C@H](Cc1ccccc1)NC(=O)[C@@H](NC(=O)CNC(=O)[C@H](CCC(=O)O)NC(=O)C(C)(C)NC(=O)[C@H](Cc1ccc(O)cc1)NC(=O)[C@@H](N)[C@@H](C)O)[C@@H](C)O)[C@@H](C)O)[C@@H](C)CC)C(=O)N[C@@H](C)C(=O)N[C@@H](CCC(N)=O)C(=O)NC(C)(C)C(=O)N[C@@H](CCC(=O)O)C(=O)N[C@@H](Cc1ccccc1)C(=O)N[C@H](C(=O)N[C@@H](CC(N)=O)C(=O)N[C@@H](Cc1c[nH]c2ccccc12)C(=O)N[C@@H](CC(C)C)C(=O)N[C@@H](CC(C)C)C(=O)N[C@@H](C)C(=O)NCC(=O)NCC(=O)N1CCC[C@H]1C(=O)N[C@@H](CO)C(=O)N[C@@H](CO)C(=O)NCC(=O)N[C@@H](C)C(=O)N1CCC[C@H]1C(=O)N1CCC[C@H]1C(=O)N1CCC[C@H]1C(=O)N[C@@H](CO)C(=O)O)C(C)C,,measured: blood glucose,"db/db mouse, non-fasted","subcutaneous, 25 nmol/kg",,duration of hypoglycaemia,≤ 2 h
COCCCn1ccn2cc(C(=O)NCc3ccc(F)cc3F)c(=O)c(O)c2c1=O,human immunodeficiency virus 1,single-round vector infection,integrase N155H,,,EC50,8.2 ± 1.3 nM
Cc1cc(/C=C/C#N)cc(C)c1Nc1nc(Nc2ccc(C#N)cc2)ncc1N,HIV-1,"viral replication, single-round infection",RT mutant K101P,,,EC50,9 ± 2.3 nM
Cn1ccn2cc(C(=O)NCc3ccc(F)cc3F)c(=O)c(O)c2c1=O,human immunodeficiency virus 1,single-round vector infection,integrase G140S/Q148H,,,EC50,276 ± 96.7 nM
Cc1cn(C2CCC(OC(C(=O)O)P(=O)(O)O)C2)c(=O)[nH]c1=O (racemic),HIV-1 reverse transcriptase F61A,"enzyme activity, inhibitor",,"with: poly(rA)·oligo(dT), [3H]dTTP",reference: mutant over wild type,fold resistance,31 fold
CC[C@H](C)[C@H](NC(=O)[C@H](CCCCN)NC(=O)[C@H](CCCCN)NC(=O)[C@H](CC(C)C)NC(=O)[C@H](Cc1c[nH]c2ccccc12)NC(=O)CN)C(=O)NCC(=O)N[C@@H](CCCCN)C(=O)N[C@@H](CCCCN)C(=O)N[C@H](C(=O)N[C@@H](CCC(=O)O)C(=O)N[C@@H](CCCNC(=N)N)C(=O)N[C@H](C(=O)NCC(=O)N[C@@H](CCC(N)=O)C(=O)N[C@@H](Cc1c[nH]cn1)C(=O)N[C@H](C(=O)N[C@@H](CCCNC(=N)N)C(=O)N[C@@H](CC(=O)O)C(=O)N[C@@H](C)C(=O)N[C@H](C(=O)N[C@H](C(=O)N[C@@H](CCC(N)=O)C(=O)N[C@H](C(=O)N[C@H](C(=O)NCC(=O)N[C@H](C(=O)N[C@@H](C)C(=O)N[C@@H](CCC(N)=O)C(=O)N[C@@H](CCC(N)=O)C(=O)N[C@@H](C)C(=O)N[C@@H](C)C(=O)N[C@@H](CC(N)=O)C(=O)N[C@H](C(=O)N[C@@H](C)C(=O)N[C@@H](C)C(=O)N[C@H](C(=O)N[C@@H](CC(C)C)C(=O)N[C@@H](CCCCN)C(N)=O)[C@@H](C)O)C(C)C)C(C)C)[C@@H](C)CC)[C@@H](C)O)[C@@H](C)CC)[C@@H](C)O)[C@@H](C)O)C(C)C)[C@@H](C)CC,Escherichia coli,broth microdilution,"RKI 6 A-6, CAMHB with 10% mouse serum",150 mM NaCl,,MIC,2 µg/mL
CCCCCCCCCCCCCCCC(=O)N[C@@H](CCC(=O)NCCOCCOCCC(=O)NCCOCCOCCC(=O)NCCCC[C@H](NC(=O)[C@H](CC(=O)O)NC(=O)[C@H](CC(C)C)NC(=O)[C@H](Cc1ccc(O)cc1)NC(=O)[C@H](CCCCN)NC(=O)[C@H](CO)NC(=O)[C@H](Cc1ccc(O)cc1)NC(=O)[C@H](CC(=O)O)NC(=O)[C@H](CO)NC(=O)[C@@H](NC(=O)[C@H](Cc1ccccc1)NC(=O)[C@@H](NC(=O)CNC(=O)[C@H](CCC(N)=O)NC(=O)[C@@H](CO)NC(=O)[C@@H](N)Cc1c[nH]cn1)[C@@H](C)O)[C@@H](C)O)C(=O)N[C@@H](CCCNC(=N)N)C(=O)N[C@@H](CCCNC(=N)N)C(=O)N[C@@H](C)C(=O)N[C@@H](CCC(N)=O)C(=O)N[C@@H](CC(=O)O)C(=O)N[C@@H](Cc1ccccc1)C(=O)N[C@H](C(=O)N[C@@H](CCC(N)=O)C(=O)N[C@@H](Cc1c[nH]c2ccccc12)C(=O)N[C@@H](CC(C)C)C(=O)N[C@@H](CC(C)C)C(=O)N[C@@H](CC(N)=O)C(=O)N[C@H](C(=O)NCC(=O)NCC(=O)N1CCC[C@H]1C(=O)N[C@@H](CO)C(=O)N[C@@H](CO)C(=O)NCC(=O)N[C@@H](C)C(=O)N1CCC[C@H]1C(=O)N1CCC[C@H]1C(=O)N1CCC[C@H]1C(=O)N[C@@H](CO)C(N)=O)[C@@H](C)O)C(C)C)C(=O)O,,Western blot,"C57BL/6J mouse CCl4 model, liver",dose not given,,JNK phosphorylation and cleaved caspase-3,decreased
CC[C@H](C)[C@H](NC(=O)[C@H](C)NC(=O)[C@@H](NC(=O)[C@@H](NC(=O)[C@H](CC(C)C)NC(=O)[C@H](CCCCN)NC(=O)[C@@H](N)CCCCN)[C@@H](C)CC)[C@@H](C)O)C(=O)N[C@@H](CC(C)C)C(=O)N[C@@H](CCCCN)C(=O)N[C@@H](CCCCN)C(=O)N[C@H](C(=O)N[C@@H](CCCNC(=N)N)C(=O)N[C@@H](CCC(=O)O)C(=O)N[C@@H](CCCCN)C(=O)N[C@@H](CCCCN)C(=O)N[C@@H](CCCCN)C(=O)N[C@@H](CCC(=O)O)C(=O)N[C@@H](CS)C(=O)N[C@@H](CC(C)C)C(=O)N[C@H](C(=O)O)C(C)C)[C@@H](C)O,TTX-sensitive sodium channel,"resurgent sodium current, open-channel blocker, whole-cell patch clamp",mouse hippocampal CA3 neurons,"200 µM intracellular, 22 °C",,time to peak,1.2 ± 0.2 ms
O=C(NCc1ccc(F)cc1F)c1cn2c(c(O)c1=O)C(=O)N(CCCCCO)CC2,human immunodeficiency virus 1,single-round vector infection,integrase N155H,,,EC50,66.9 ± 14 nM
Nc1ncnc2c1ncn2C1CCC(OC(C(=O)O)P(=O)(O)O)C1 (racemic),HIV-1 reverse transcriptase Y115F,"enzyme activity, inhibitor",,"with: poly(rU)·oligo(dA), [3H]dATP",reference: mutant over wild type,fold resistance,0.8 fold
O=C(NC1CCN(c2ncnc3[nH]cnc23)CC1)c1cccc(NS(=O)(=O)c2ccc(C(F)(F)F)cc2)c1,monkeypox virus E1/E12,,,0.01221 µM,,inhibition,15%

# Excerpt of the above:
Structure (SMILES),tested on,test,test system,conditions,scale,measurement,result
O=C(NC1CCN(c2ncnc3[nH]cnc23)CC1)c1cccc(NS(=O)(=O)c2ccc(C(F)(F)F)cc2)c1,monkeypox virus E1/E12,,,0.01221 µM,,inhibition,15%
